Measured values collected from several papers.
Each numbered part is a random draw from the data of one study; scales do not carry over between parts. Changes are numbered by the printed parent chain.

Series 1 — technique: RNA Bind-n-Seq; molecule type: RNA; medium: in vitro; tested at: not given; reference: input RNA pool; reading: higher = stronger binding
Target: RING finger protein unkempt homolog, zinc fingers 1-6, GST-SBP tag (UNK, Homo sapiens, UniProt Q9C0B0, residues 30-357)
Setting: RNA with constant flanks, human-mouse chimeric sites, ends assumed
All sequences stand within: GGGAGUUCUACAGUCCGACGAUC … CAACAGAGGAUUGAGCAUCA
Residues (chain): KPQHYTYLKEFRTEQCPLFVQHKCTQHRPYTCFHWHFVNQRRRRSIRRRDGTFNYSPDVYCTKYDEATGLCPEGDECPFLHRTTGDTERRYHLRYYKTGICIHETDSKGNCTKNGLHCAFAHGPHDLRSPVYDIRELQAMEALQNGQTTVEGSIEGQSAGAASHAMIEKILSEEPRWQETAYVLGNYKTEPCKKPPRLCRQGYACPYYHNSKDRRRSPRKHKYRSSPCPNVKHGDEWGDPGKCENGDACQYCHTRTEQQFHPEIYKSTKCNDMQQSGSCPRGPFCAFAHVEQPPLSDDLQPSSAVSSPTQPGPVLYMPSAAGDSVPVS
Sequence	bound/input enrichment [ratio]
CUGGCCUGGCCCUCCCCAGGGGCCUCCUUUCGUAUAGUCACUGCUUCUGCAUCAGAUACUUUCAGCUGCAACUCCCUACUGGGUGGGGCACCUAUCUCAGGCAGAAGGUUUUGGUACCCU	0.248
UCUUAACUUAUUCAUUUAACUUAUUUUUAGCACUUAGUAAAUAUUGUUAGUCUUAGACAAUAGCUCACAUUUUUUGAGAAGCAUGCCCUCCCUGUCCAUUUGUCUUAUAACAUGACCCAG	438
GAGCGUCUUGCCCGCACUGGGAUCAUCGUGACCACUAGUGAGGCUGUCCUCCUACAGCUGGUGGCUGACAAAGACCACCCGAAGUUCAAGGAAAUUCAGAAUCUAAUUAAGGCGAGUGCC	0.113
GUUGCCAGCUUCCGGUUCCGUUGGGCUCGGUUCUCUCAGUGCUACGUUGUCUCUACGCUCUCAAUCCGCCAUCCAACAAACAUGGAUGAUCAGGUAAAGUUUGUGGAGCCCAGCCGGCAG	0.0749
CUCAGAGAUGUGGCAUAUCAGUAUGUGAAAAAGGGGGCUCGUAUAUUUGUGGAAGGGAAAGUGGACUAUGGCGAGUACAUGGAUAAAAAUAAUGUGAGGCGGCAAGCAACAACAAUCAUA	0.362
UAAGUUAUUUUGUACAGCUUUGUAAAUUCUUAACAUUAAUUUGUAAAACAUUUUAUGUUGUUUGGGUAAUUUGGUUCAUUAAGUACAUAGCUAAGGUAAUGAACAUCUUUUUCAGUAAUU	0.329
UCCCAAAUCCAGCAGCUCCUUGAAAUAAAUUGUUUGUCACUCCACACACAGGGAAGGCGAUAACAUUGUACAUUGGUUUACAUUUUUUCCCCCUGUGGAUUUUUCUAGAGGUCAUAGUGC	0.529
UUUCUACUGCAGCAAACGAUGCUAAGAGUGAAGGAUCCUAAGAAGUCCCUGGAUUUUUAUACGAGGGUUCUUGGAAUGACCCUCCUGCAGAAGCUUGACUUCCCUGCUAUGAAGUUCUCG	0.111

Series 2 — technique: universal PBM; molecule type: double-stranded DNA, one strand shown; medium: in vitro; tested at: not given; reading: higher = stronger binding
Target: Sal-like protein 4, full length isoform B (SALL4, Homo sapiens, UniProt Q9UJQ4-2, residues 1-616)
Setting: 8-mer, flanks averaged, mean of replicates
Sequence	E-score
ACAATCAG	0.152
GATTTGCC	-0.118
CTAGGTAA	0.0559
CGGGAGGA	-0.288
CCCGAACA	-0.101
GCCTATTA	0.172
GGTGGCAC	-0.275
AGAGGCGC	-0.273
GCCTTCAA	-0.0946
ATTAATCC	0.303
ACTCACAT	0.0796
GCGGTGCC	-0.355
GAGTTTCA	-0.121
GACGCCAA	-0.111
ACCGGAAT	-0.134
AGAGGAGA	-0.153

Series 3 — technique: protein-binding microarray; molecule type: double-stranded DNA, one strand shown; medium: in vitro; tested at: 2540 nM top; setting: 60-bp whole probe; with: salmon DNA 0.4 mg/ml; reference: random background probes; reading: higher = stronger binding; all sequences stand within: GCCTAGCAC … GTCTTGATTCGCTTGACGCTGCTG
Target: Interferon regulatory factor 3, full length, phosphomimetic (IRF3, Homo sapiens, UniProt Q14653, residues 1-427, S386D/S396D/S398D/S402D/T404D/S405D)
Residues (chain): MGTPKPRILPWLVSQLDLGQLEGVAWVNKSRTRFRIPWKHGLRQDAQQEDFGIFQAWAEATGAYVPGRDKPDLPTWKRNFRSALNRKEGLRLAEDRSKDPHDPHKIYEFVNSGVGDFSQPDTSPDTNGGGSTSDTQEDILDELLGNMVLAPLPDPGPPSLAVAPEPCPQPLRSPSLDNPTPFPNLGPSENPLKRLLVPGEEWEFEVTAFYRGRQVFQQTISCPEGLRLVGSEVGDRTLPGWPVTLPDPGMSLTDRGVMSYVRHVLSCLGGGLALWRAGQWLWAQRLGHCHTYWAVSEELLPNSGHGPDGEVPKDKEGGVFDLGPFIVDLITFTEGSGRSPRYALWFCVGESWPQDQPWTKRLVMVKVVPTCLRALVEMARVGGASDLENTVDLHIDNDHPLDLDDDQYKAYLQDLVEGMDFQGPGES
Sequence	fitted relative affinity
GACGGTATCCTTCTCCTGAGGTGCTAG	6.69 z-score
GACGAGCTCAGTTTCGAGACGTGCTAG	2.14 z-score
GACGAACTGGGGTTTAGAGACGTGCTA	-0.619 z-score
GAGGGTATCGGACTGGGGACGTGCTAG	0.206 z-score
GACGAACTGGGGTTTCCAGACGTGCTA	0.805 z-score
TTATGACTGGGGTATCGGTTAGTGCTA	0.188 z-score
TCCCCTCTAGGTCTTCTGAAGTGCTAG	0.185 z-score
TCATTTACCACATTCTCACTGTGCTAG	2.37 z-score
TCAAGGATGGTTTTCAGACTGTGCTAG	0.357 z-score
GACGATTTCGGGGCTGGAGACGTGCTA	0.775 z-score
GATGGTCTCGGTCTCGGGACGTGCTAG	0.736 z-score
GACGGTCGCCTACTGCTGACGTGCTAG	-0.226 z-score
TCAGATGTGGGACTCACACTGTGCTAG	-0.416 z-score
TCACCACTCTTTCCTCACACTGTGCTA	1.2 z-score
TTAGGTTTCGGTTTCCGTTAGTGCTAG	11.4 z-score
TTAGATCTCAGTGTCGATTAGTGCTAG	0.236 z-score
AAGACTTTGCTCTGTGCATAGGTGCTA	-0.542 z-score

Series 4 — technique: RNAcompete; molecule type: RNA; medium: in vitro; tested at: 20 nM; setting: 7-mer, probes averaged, single round; reference: mean of 7-mers; reading: higher = stronger binding
Target: PABPC1L2, full length, GST fusion (mouse, UniProt A0ABA7IW68)
Target sequence (chain): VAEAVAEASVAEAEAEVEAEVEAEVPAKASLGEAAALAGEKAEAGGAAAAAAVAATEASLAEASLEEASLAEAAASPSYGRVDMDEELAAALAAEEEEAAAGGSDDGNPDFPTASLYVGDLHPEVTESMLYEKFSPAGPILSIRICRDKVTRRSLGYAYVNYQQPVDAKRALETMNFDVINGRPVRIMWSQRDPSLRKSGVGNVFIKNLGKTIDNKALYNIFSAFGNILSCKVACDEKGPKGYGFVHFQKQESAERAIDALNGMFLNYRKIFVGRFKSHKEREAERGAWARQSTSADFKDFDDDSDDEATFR
Sequence	7-mer Z-score
GUCUUCG	-0.383
CAAUUAU	-0.0736
AAUAACC	0.187
GAUACAA	0.367
CGACGCU	-0.371
UUUCAUG	-0.389
UCGGUCG	-0.313
UAGAAUC	-0.0627
UUAGGAC	-0.0989
GGUCCUC	-0.195
GACUUAA	0.0732
AUAUAGU	-0.11
AUAUAUC	-0.117
AUACCGU	-0.193
UAAGAGG	0.18
CGUUCAU	-0.398
UAUCCAG	-0.293
GUUUUAA	-0.219

Series 5 — technique: protein binding microarray; molecule type: double-stranded DNA, one strand shown; medium: in vitro; tested at: not given; reference: not given; reading: higher = stronger binding
Target: Histone acetyltransferase KAT6A, winged helix 1, GST fusion (KAT6A, Homo sapiens, UniProt Q92794, residues 1-85)
Setting: 8-mer, flanks averaged, mean of 2 arrays, mostly near background
Target sequence (chain): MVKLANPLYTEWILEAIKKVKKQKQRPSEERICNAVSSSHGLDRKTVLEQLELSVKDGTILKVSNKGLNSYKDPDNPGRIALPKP
Sequence	E-score
AGCCTACT	-0.232
AGGTCTGA	-0.0966
ACGTACAC	-0.165
CTTTTTGC	-0.0312
ACGTCAAC	-0.0739
ATGAAGCA	-0.291
AATTTGCA	-0.276
GCTATCCA	0.0742
AAAGGCAA	-0.184
AACCAGTT	-0.158
CTTCAGAA	-0.194
ACCAGATG	-0.221
AAGAAACC	-0.0141
GCCTTCCC	0.0913
CGCAGTAC	0.147

Series 6 — technique: RNA Bind-n-Seq; molecule type: RNA; medium: in vitro; tested at: 365 nM; reference: no-protein control; reading: higher = stronger binding
Target: RNA binding protein fox-1 homolog 2, RRM domain, GST-SBP tag (RBFOX2, Homo sapiens, UniProt O43251-10, residues 100-194)
Setting: natural RNA segment, single round, ends assumed
All sequences stand within: GGGAGUUCUACAGUCCGACGAUC … UGGAAUUCUCGGGUGCCAA
Sequence	RBNS enrichment (R)
UUGUGGGCCCUGGAGGCUCCCUGCAUUGGAGGAAGGGCAGCUCAGCAGCUCAGGACCCUUUCCCUUAGGGGCUGCUUCCUCCCCUCAAAACCAGAACCUGGCAAGGGACU	0.419
UUUGUUUAUACUUUAAUUACAAAACUAUUUUUUUUAACUUCCUACAUUGUUUUCCUACUUUUUUGUUGUUGGAUUAUGUAACUUUUCCUAAGUUCAGAAGUCUUAAGUGU	1.11
CCCCUCACGUCCCAUGUGCUCAGACCCAGAAAAAGCAGAACAGAAUUAGAAGUGCCUCUGAGCCUUGUGAAGUGUGUGCGCAAGCCCCCAUGGAGAAAUGGAGACAUCUU	0.848
GCCAGGCCCGUGCGGUCAGUGGGACCCGGACGUGGGCAGGCGAGCUCGGGACCCUCCCAGGCAGUUCCCACAGCUCUUGCCUCGGCUCACCAGGGUCACUUCCACUGUCA	0.398
CUUCCACAUUGCAUGUUCACUUUAGUAUUUGCAAUUUGAUAUAUUUCAUGGUGGCAAAAUAUUAGCUCUGUUUUGGGACAUUUUAAAAUAGAACUAUCCUUGUUCGAUAG	4.04
CUCUGGCUGCAGAGUUGAGGUUGGACUCUGGAGUGGAUGGUGGAGAUGAGGCACAGUGGAGAGAAAGCUGGGCUAGGCCAUUGAAAUAGAGGCUGGGUUUUUUAAUAAGA	0.989
UUUUCUUUUCUAAUGUAGCUUUCCCUGUUGAGGCUAUUGUUUCUUCUUAAUUUAUAUUAUAUUUUAAACAACAUAGUAUAUAGCACAGGAAUUUGCAGAAGCCAUUUAAG	0.593
CUGGUAAAAGGGAAUUCAGAAGAUUGCCUUAGAGUCUAAUUCCCCCAUGAAAGAUUAUUAAUUACAUCUCACUGUAGGGUCUUUCUGGUAUUGAGGGGAGUCAGCAUGUA	12.9

Series 7 — technique: DHFR PCA, deep sequencing; medium: yeast; with: (+)-ABA 0 µM; reference: wild-type fitted maximum; reading: higher = stronger binding
Target: ABI1, truncated, D143A, DHFR fusion (Arabidopsis thaliana)
Setting: methotrexate growth selection, single substitutions
Starting sequence: PYL1, truncated, DHFR fusion (Arabidopsis thaliana); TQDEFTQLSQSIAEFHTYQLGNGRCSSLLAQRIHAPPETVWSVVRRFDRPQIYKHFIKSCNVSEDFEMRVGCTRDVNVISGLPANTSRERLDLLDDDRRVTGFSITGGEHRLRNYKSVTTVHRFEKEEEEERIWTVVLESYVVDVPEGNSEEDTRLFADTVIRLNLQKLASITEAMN
Change	relative binding score
E4R	2.54%
E151H	17.4%
N149H	33.8%
H122A	-0.00787%
V136Q	-11.4%
K58Y	2.75%
F124E	7.71%
E139P	10.4%
L28I	65.3%
A84L	20%
T39V	52%
T154C	-5.07%
L93D	-4.89%
F103E	-2.03%

For quick reference, copied from above (series 4):
Sequence	7-mer Z-score
GAUACAA	0.367
CGACGCU	-0.371
UUUCAUG	-0.389
UCGGUCG	-0.313
UAGAAUC	-0.0627
UUAGGAC	-0.0989
GGUCCUC	-0.195
GACUUAA	0.0732
AUAUAGU	-0.11
AUAUAUC	-0.117
AUACCGU	-0.193
UAAGAGG	0.18
CGUUCAU	-0.398
UAUCCAG	-0.293
